Experimental data pooled from the literature.
Each line is one published result; not all experiments were run side by side. Numbers after ± are the reported error.

| Structure (SMILES) | technique | sample | tested at | pH | temperature | logP |
| --- | --- | --- | --- | --- | --- | --- |
| CN(C)c1ccc(/C=C/c2cc(=O)cc(/C=C/c3ccc(N(C)C)cc3)o2)cc1 | – | n-octanol/10 mM PBS | – | pH 7.4 | – | 2.61 |
| O=C(C=Cc1ccccc1)Nc1ccc(-c2ccc(NC(=O)C=Cc3ccccc3)cc2)cc1 | shake flask UV/Vis | n-octanol/water | – | – | – | 6.51 |
| O=c1cc(-c2ccc(O)c(O)c2)oc2cc(O)cc([O][Ga+][O]c3cc(O)cc4oc(-c5ccc(O)c(O)c5)cc(=O)c34)c12 | shake-flask octanol/PBS | – | – | pH 7.4 | 37 °C | 0.95 |
| CC(=O)N1N=C(Nc2ccc(-c3ccc(NC4=NN(C(C)=O)C(c5ccc(O)cc5)C4)cc3)cc2)CC1c1ccc(O)cc1 (stereo not drawn) | shake flask UV/Vis | n-octanol/water | – | – | – | 5.43 |
| COc1ccc(Nc2nc(Nc3ccc(OCCOCCOCC[18F])cc3)ncc2Br)cc1 | – | n-octanol/PBS | – | pH 7.4 | – | 2.86 ± 0.06 |
| CC1(C)C[N+]2=Cc3ccc4[n]3[Au-]23[n]2c(ccc2-c2nc5ccccc5nc2-4)C=[N+]3C1.F[P-](F)(F)(F)(F)F | – | octanol/water | – | – | – | 1.01 |
| COc1ccc(C=CC(=O)Nc2ccc(-c3ccc(NC(=O)C=Cc4ccc(OC)cc4)cc3)cc2)cc1 | shake flask UV/Vis | n-octanol/water | – | – | – | 6.7 |
| NS(=O)(=O)c1ccc(N/N=C2\C(=O)Nc3ccc(C(=O)NCCc4c[nH]cn4)cc32)cc1 | – | octanol/buffer | – | pH 11 | – | 1.01 |
| CC(=O)[O][Pt]([NH2])([NH2])([Cl])([Cl])[O]C(=O)CCC(C)C1CCC2C3CCC4CC(O)CCC4(C)C3CCC12C (stereo not drawn) | shake flask | octanol/phosphate buffer | – | pH 7.4 | – | -0.53 |
| O=C(O)CCC(=O)NCCCOCCOCCOCCCNC(=O)CCC(=O)O | shake-flask | n-octanol/water | – | – | 24 °C | -0.48 |
| CCCCCCC(=O)[O][Pt]([NH2])([NH2])([Cl])([Cl])[O]C(=O)CCC(C)C1CCC2C3CCC4CC(O)CCC4(C)C3CCC12C (stereo not drawn) | shake flask | octanol/phosphate buffer | – | pH 7.4 | – | -0.29 |
| O=c1cc(/C=C/c2ccc(N3CCOCC3)cc2)oc(/C=C/c2ccc(N3CCOCC3)cc2)c1 | – | n-octanol/10 mM PBS | – | pH 7.4 | – | 0.73 |
| O=c1cc(-c2ccc(O)cc2)oc2cc(O)cc([O][Ga+][O]c3cc(O)cc4oc(-c5ccc(O)cc5)cc(=O)c34)c12 | shake-flask octanol/PBS | – | – | pH 7.4 | 37 °C | 1.56 |
| CC(=O)N1N=C(Nc2ccc(-c3ccc(NC4=NN(C(C)=O)C(c5ccc(N(C)C)cc5)C4)cc3)cc2)CC1c1ccc(N(C)C)cc1 (stereo not drawn) | shake flask UV/Vis | n-octanol/water | – | – | – | 6.58 |
| C1=[N+]2CCCC[N+]3=Cc4ccc5[n]4[Au-]23[n]2c1ccc2-c1nc2ccccc2nc1-5.F[P-](F)(F)(F)(F)F | – | octanol/water | – | – | – | 0.878 |
| Oc1c(Br)cc(Br)c2nc3cc(Cl)ccc3nc12 | UV-vis | octanol/water | – | – | – | 0.68 ± 0.13 |
| CN1CCN(c2ccc(/C=C/c3cc(=O)cc(/C=C/c4ccc(N5CCN(C)CC5)cc4)o3)cc2)CC1 | – | n-octanol/10 mM PBS | – | pH 7.4 | – | 1.2 |
| Cc1nc(C)c(-c2ccnc(Nc3cccc(C#N)c3)n2)s1 | – | octanol/buffer | 67 µM | pH 11 | – | 3.89 |
| CN(C)c1ccc(C=CC(=O)Nc2ccc(-c3ccc(NC(=O)C=Cc4ccc(N(C)C)cc4)cc3)cc2)cc1 | shake flask UV/Vis | n-octanol/water | – | – | – | 6.71 |
| CC(CCC(=O)OCc1cc(CN(C(=O)OCc2ccc(B(O)O)cc2)[c-]2cccc2)cc(-c2cn(-c3cc4ccc(O)cc4oc3=O)nn2)c1)C1CCC2C3C(O)CC4CC(O)CCC4(C)C3CC(O)C12C.[Fe+2].c1cc[cH-]c1 (stereo not drawn) | RP-TLC | – | – | pH 7.4 | – | 5.7 ± 0.07 |
| COc1ccccc1C=CC(=O)Nc1ccc(-c2ccc(NC(=O)C=Cc3ccccc3OC)cc2)cc1 | shake flask UV/Vis | n-octanol/water | – | – | – | 6.1 |
| Cc1cc(NC(=O)c2ccc(Br)cc2)n[nH]1 | – | octanol/buffer, 40 mM buffer | – | pH 11 | – | 2.7 |
| COc1cc(C2CC(Nc3ccc(-c4ccc(NC5=NN(C(C)=O)C(c6ccc(O)c(OC)c6)C5)cc4)cc3)=NN2C(C)=O)ccc1O (stereo not drawn) | shake flask UV/Vis | n-octanol/water | – | – | – | 5.25 |
| O=c1c(O)c(-c2ccc(O)c(O)c2)oc2cc(O)cc([O][Ga+][O]c3cc(O)cc4oc(-c5ccc(O)c(O)c5)c(O)c(=O)c34)c12 | shake-flask octanol/PBS | – | – | pH 7.4 | 37 °C | 0.46 |

A few entries again:
| Structure (SMILES) | technique | sample | tested at | pH | temperature | logP |
| --- | --- | --- | --- | --- | --- | --- |
| CCCCCCC(=O)[O][Pt]([NH2])([NH2])([Cl])([Cl])[O]C(=O)CCC(C)C1CCC2C3CCC4CC(O)CCC4(C)C3CCC12C (stereo not drawn) | shake flask | octanol/phosphate buffer | – | pH 7.4 | – | -0.29 |
| C1=[N+]2CCCC[N+]3=Cc4ccc5[n]4[Au-]23[n]2c1ccc2-c1nc2ccccc2nc1-5.F[P-](F)(F)(F)(F)F | – | octanol/water | – | – | – | 0.878 |
| Cc1cc(NC(=O)c2ccc(Br)cc2)n[nH]1 | – | octanol/buffer, 40 mM buffer | – | pH 11 | – | 2.7 |
